Measurements of several laboratories.
Each numbered part is a random draw from the data of one study; scales do not carry over between parts.

Block 1
Target: Histone acetyltransferase KAT6A, winged helix 1, GST fusion (KAT6A, Homo sapiens, UniProt Q92794, residues 1-85)
Method: protein binding microarray
Form: double-stranded DNA, one strand shown
Matrix: in vitro
Tested at: not given
Notes: 8-mer, flanks averaged, mean of 2 arrays, mostly near background
Reference: not given
Direction: higher = stronger binding
Residues (chain): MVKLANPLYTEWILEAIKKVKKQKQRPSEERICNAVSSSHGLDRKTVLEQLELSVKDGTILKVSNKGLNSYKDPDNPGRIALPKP
Sequence | E-score
CCATACGG | 0.311
AGACATAG | -0.0104
ATACAACA | -0.201
CTGTTGAA | -0.119
GCACCTGC | 0.0532
ATTGTAAC | -0.00108
CAGCATGA | -0.283
CCATCAGA | -0.106
AACGTTGG | -0.0215
ATCTGTTA | -0.217
TGTCCTAA | -0.209
AGCTTCGG | -0.101
CACTGTGG | -0.106
GTAAATCA | -0.113
ATTGAAGA | -0.21
ATTCCAAA | -0.0994

Block 2
Target: RING finger protein unkempt homolog, zinc fingers 1-6, SBP tag (UNK, Homo sapiens, UniProt Q9C0B0, residues 30-357)
Chain of UniProt Q9C0B0 (30-357, looked up): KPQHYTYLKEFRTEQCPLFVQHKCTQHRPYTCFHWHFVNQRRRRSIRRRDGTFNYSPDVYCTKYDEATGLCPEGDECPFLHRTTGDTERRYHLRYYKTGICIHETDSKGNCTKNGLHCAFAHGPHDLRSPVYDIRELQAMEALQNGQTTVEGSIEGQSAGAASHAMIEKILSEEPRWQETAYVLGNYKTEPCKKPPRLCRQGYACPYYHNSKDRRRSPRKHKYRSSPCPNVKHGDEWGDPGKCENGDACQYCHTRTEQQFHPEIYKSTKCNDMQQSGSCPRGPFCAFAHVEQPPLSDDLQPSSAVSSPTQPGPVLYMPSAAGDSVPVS
Method: RNA Bind-n-Seq
Form: RNA
Matrix: in vitro
Tested at: 100 nM
Notes: RNA with constant flanks, vertebrate orthologous sites, ends assumed
Reference: input RNA pool
Direction: higher = stronger binding
All sequences stand within: GGGAGUUCUACAGUCCGACGAUC … CAACAGAGGAUUGAGCAUCA
Sequence | bound/input enrichment
GAUUAGUGUCAUACCAGCAUAUUAACCUCUCGUCUGUGCACAGCUUCAACCGUUACCGUCUAGUUAGAUUUUUAUUUAAAAUAUGAAAAACCGCUUUUCCCAAGACGUUUUUUAAAAAAC | 1.93 ratio
GGAUAUUUAAAAUCUUGAAUUGUCCUGGGAUGCUCAAGUUCAUUCUGUAGGAUGAGACCAUAGGAUGAUGUUGCUGUUUUGUUUUGUUCUGUCUUUUAAGUCUGUGUACUGUGUCCAGUU | 0.604 ratio
UGUCUGCCUCAUUCUAAAAUUUACACAGUAGACCAUUUGUCAUUCAUGCUGUCCCACAAAUAGUUUUUUGUUUACGAUUUAUGACAGGUUUAUGUUACUUCUAUUUGAAUUUCUAUAUUU | 1.07 ratio
AGCAAACCAAGGAUUCAGGACUGGUUUUACAAAUGUGCCAAGUAGAUAUGGAACUAACAAUAGAAUUGGACAACCAAGACCAUGAUGUACUGUAAUUUAAUUUAUUUUUAUGAGGAAUAU | 0.595 ratio
AAGAUGGUGGUUGUACAUUAUUUCAUUUAGAAAAUAUAAAACUUCAUUUUGUUUUGAAGCUAGGUGUUAAACUGGAAUAGCUAUUCUACCCCAGAGAAUGGGGCAGUUGUGCCCUUCCCU | 1.28 ratio
GAACCCCAGUUUGUAUGUACAUUCACAUUCCUGUCUGUUUUGUUAGGAAAAAAAGACAUUUUAGCCUUUUUUAAGGUUAUUGAUUUAAUUUUAUGUUACUGGAUUGCAUGAUGUUGCCCU | 0.275 ratio
UUGGGACCAGCUCUCCAAGUAGGAAUAGUAGUAAAAAAAAUAAGCAAAAUGAUAUUUGUAUAGAAAAGACAGAAGUUAAAUCAUGUAAAGUAAAUGCUGCCAACAUAGCAAGUCCUAAAG | 1.28 ratio
CAGGGUGGGACCCGGGACCCGCGGCUCAGUGGCCCGCUAGCCACGUCAGCCAAGCCACUUUAGGUCCAUUUUUUAUUUUAACAGUGCUCUUCCAUCUUGUGCAUAAGCCUGAGAUUUGGA | 0.977 ratio
GUUGUGAUCCUUUUAACAUACACAGAAAGCUAUCAAAGAAAAAAUUACGAGCAAUUGACUUAGAUGAUGCAGCUUUUCUAAGUGCGAAGUUUGGAAGACAGUUUGUACCUGGUUGGAAGC | 0.684 ratio
UUUUUAGUACUUAAGCCAACAGCAGUUCUAAAAUACUAUUUAUUUGUGUAAGUUUGUACAUAGUAAUACCAACCUCAUAUUGUUGCAGAAUUUAUUUUUUCCUGAAUUUGAGUUUUGAGA | 0.664 ratio
AUAAAGUGCAUAUCAAAUGCUGGAUAUCGUAUUAAACCAUCAUUUAGGGUAGAUGUUAAUUUGUUAUAAUUAAGUUACAAAUAGGUUUCCUUAAACCAGAGAUGCACUGCCCUUGUCUGA | 0.353 ratio

Block 3
Target: Hepatocyte nuclear factor 3-alpha (Foxa1, Mus musculus, UniProt P35582, residues 1-468, full length assumed)
Chain of UniProt P35582 (whole entry, looked up): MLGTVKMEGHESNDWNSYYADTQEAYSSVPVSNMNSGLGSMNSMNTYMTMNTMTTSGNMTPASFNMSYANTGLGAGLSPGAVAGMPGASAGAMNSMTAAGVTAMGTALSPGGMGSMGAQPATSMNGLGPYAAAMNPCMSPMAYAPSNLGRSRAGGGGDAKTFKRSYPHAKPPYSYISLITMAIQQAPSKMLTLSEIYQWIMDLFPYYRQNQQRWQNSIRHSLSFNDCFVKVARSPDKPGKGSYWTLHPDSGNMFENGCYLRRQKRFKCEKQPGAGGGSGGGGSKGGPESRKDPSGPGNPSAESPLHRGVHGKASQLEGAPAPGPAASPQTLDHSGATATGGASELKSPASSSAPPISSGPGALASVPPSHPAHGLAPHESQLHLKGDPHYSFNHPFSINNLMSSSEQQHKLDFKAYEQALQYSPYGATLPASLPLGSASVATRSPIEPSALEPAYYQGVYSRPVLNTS
Method: EMSA with sequencing
Form: double-stranded DNA, one strand shown
Matrix: in vitro
Tested at: 10 and 20 nM
Notes: whole designed probe, mean of two concentrations, ends assumed
Reference: negative control set to 0
Direction: higher = stronger binding
All sequences stand within: GTGAGCGGTGCCCATTGATGGGGAAC … TTTCACTGGGATCGTGGGGAC
Sequence | normalised bound fraction [ratio]
TTTATGATCTGAGTATATATAGTAAGTACCTCCCCTTTCAGGGTAAGGCAGTAGGTAATGGTGAACAGGGAAGCAAAAGGTGACTCAGGTTGAGTAATCTACACCAAGCATATCTGACTCAAGGAATGCTTCAGAGGCCAGGGGTGCATGCCTGTAATCCCAGCACCTTGGAAGGCTGACACAGGAGGATCAC | -0.0558
ACATTTGGGTCATTCCACCCTTTGACTAATGTGATCAGTGCTGCTCTGAACATTCGTGTATGAGTATTTGAGGATCGTTTTCACTTCTCTTGGGTAAACATCTAGGAGTGAAATTGCTGAGTCATAGGGCAGTTTTATGTGTAACTACTTTTTGAGGAGTGCAGTGGCATAATCTTGCCTCACTGAAACCTCC | 0.263
ATCTAGTTCCAGTCTTAGCTTGGCAATTTCTTCCCGCAACATGCTGTTTTCACGCAAGAGATCTTCTTCTTTCTTATGACTAAGAGAAAGCTAAGTAATCTAAGGGAACTTTTAGTTAGCACTCAATAGAATGACATATCATGATTTCTTCTAAAATCAAAGAATGACATTTATATTTGTATAATGAAATAAT | 0.213
GGATTAAGTGGGCAGAAATTTTTTAGGAAGAAGTGTAGAAAAAATTCTGAGGCTTTGTCTTTCCAACTAAGATGACTAAAGGGATAATTTCTAAGTAAACAGGGATGCAAGGAACAATTAATTTATTTTTAACCAGAATAGTGATTTAAGTCTAACACGTTCTTGAATAACAATTTTCAAACTCCAGGAAAAC | 0.183
GTAGGTGACTCAGCTTCCTGCAACCTCGCTGGGGAAATTTCTCCAAATATTAATGCATGCCACGTAAGCCAGGTTCACTTGCTGGCCCTGGATGTTTATTCTGGCCCCCAGTTATATTTATTTTGTGTCTGGTAGAGCCTCACACTTCAAAGTGGAATGCTCCTGAAGTTTCTACCTGGCCTCTCATCCCAGT | 0.351
CTTGCTGATTGCTAGCACAGCAGTCTGAGATCAAACTGCAAGGCGGCAGCAAGGCTGGGGGAGGGGCGCCCGCGTTTGCCCAGGCTTGCTTAGGTAAACAAAGCAGCCTGGAAGCTCGTACTGGGTGGAGCCCACGACGCTCAAGGAGGCCTGCCTGCCTCTGTAGGCTCCACCTCTGGGGGCAGGGCACAGA | 0.542
ATTATTTCATTATACAAATATAAATGTCATTCTTTGATTTTAGAAGAAATCATGATATGTCATTCTATTGAGTGCTAACTAAAAGTTCCCTTTGTTTACTTAGCTTTCTCTTAGTCATAAGAAAGAAGAAGATCTCTTGCGTGAAAACAGCATGTTGCGGGAAGAAATTGCCATGCTAAGACTGGAACTAGAT | 0.533
CTTGCTTACTGCTAGCACAGCAGTCTGAGATGCATCTGCGAGGCGGCAGCCTGGCTGGGGGAGGGGTATCCGCGTTTGCTGAGGCTTGAGTAGGTAAACAAAGCAGCCAGGAAGCTCGAACTGGGCGGAGCCCACCTCAGCTCAACAACGCCTACTGCCTCTAGACTCCACCTCTGTGGGCAGGGCACAGCTG | 0.41

Block 4
Target: RNA binding protein fox-1 homolog 2, RRM domain, GST-SBP tag (RBFOX2, Homo sapiens, UniProt O43251-10, residues 100-194)
Method: RNA Bind-n-Seq
Form: RNA
Matrix: in vitro
Tested at: 365 nM
Notes: natural RNA segment, single round, ends assumed
Reference: no-protein control
Direction: higher = stronger binding
All sequences stand within: GGGAGUUCUACAGUCCGACGAUC … UGGAAUUCUCGGGUGCCAA
Residues (chain): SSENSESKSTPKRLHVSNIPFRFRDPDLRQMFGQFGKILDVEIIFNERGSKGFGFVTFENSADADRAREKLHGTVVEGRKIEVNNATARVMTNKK
Sequence | RBNS enrichment (R)
AAAAGCAAAGCUUCCUAAAAAGAUUUUUCUUGGCAGCUCCAGGUCUAUACAUUUAGGUAAUGAAUGGUAGUAGAACUAAUAGCUUUAACAGGAGAAUAGGGAAUGAGAAA | 0.54
CUGAGGGAAGAAACACCACGUCACAGUCACGAUGUCUGCCUUACUGGCUUCCCCAGGGAAGGAAAAAUGUGCUUCCUCCCUUUUUUCAAGGGUUCAUCUUUGCUUUAAUU | 0.423
CCACCACCCCCGCAAAAACAAAAACAAAAACCAUCAUAAGAGCACACAUAGAUCGGAGUGAACAGAGAGCUUUGCCUCAAUCAUUUUUCUGGCUUUCCUCUGCAGCCAGG | 0.895
UUAGUGGGAAAACGACUUCUGUUUUGACAUGUAGAGUUUGAAGAUUAGGAGAUUGACAGAUGAUGUUGUCUGACAGGUGGUUGGCUGUCCCAGAGAGAGAUAGAGACUCC | 0.441
UGUUGAUGCAUGGGCCUCAGUCACAGAGGAGCUGGGUGCCCAGUACCCUUGGGUGCAGGUCUUUGAAAACAAAGGUGCCAUGAUGGGCUGUUCUAACCCCCACCCCCACU | 0.318
CCACUUCUCACCCUUCUUUCCUCCUGACCUUGGUCAGCAGUGAUGACCUCCAACUCUCACCCACCCCCUCUACCAUCACCUCUAACCAGGCAAGCCAGGGUGGGAGAGCA | 0.369
AAUACAGCGUGGGACCCUUCAGCCACUACAACAGAAUUUUUUAAAUUGACAGUUGCAGAAUUGUGGAGUGUUUUUACAUUGAUCUUUUGCUAAUGCAAUUAGCAUUAUGU | 0.312
AUUCUAAGAGCAAGUUGAGUUGAACUGAAUCUUCCUUGUCUUAGUAACAAUGUAUAAAUAGUGGCUUUUCUGUACAAAAGGUUGUAAUGCCUCCUGAUGGAUAUAAUUUU | 2.08
UGCAGAGGAGGUUCUCUUCAUAAGGGGGACUCACAGAAGGACCUUCCAGUGAAUGUUUGACCUAGGGAAUGCAGCCACACUGGAAGCACCAAUAGAGGGCUAAGGUCAGA | 8.19
UUCUGGCAAGCAGGUGCAGAGUCCCCAGCUCUGGGCUGUGCUGGGGAGUGUCAGGCCUGGAGUCCACAGCCUCACCUGCUGCUGUAGCUGUCAGCUGGACCUGGUGGCUU | 0.647
UUCGGAUCCUGGAUCACUGAAAUAAGCACUUUCAGAUACACUUUCUACUAAUUAUGGGCUAAAGAGUUUCUUAUAAUAAAAUAUCCUCUAAGAUUAUAAAAUAAGCAGGU | 0.574
GUUAUAGUCAGCUGAUAGAUUGAUGUGGCUGAAAACAGGACCGAGUGAACUGAUGCUCCCACCUGGGUGCCUCCAUGGCUUCCUUGAGCAACUGUCCCUAAGAUGCUUUC | 0.521

A few entries again (block 4):
Sequence | RBNS enrichment (R)
CCACCACCCCCGCAAAAACAAAAACAAAAACCAUCAUAAGAGCACACAUAGAUCGGAGUGAACAGAGAGCUUUGCCUCAAUCAUUUUUCUGGCUUUCCUCUGCAGCCAGG | 0.895
UUAGUGGGAAAACGACUUCUGUUUUGACAUGUAGAGUUUGAAGAUUAGGAGAUUGACAGAUGAUGUUGUCUGACAGGUGGUUGGCUGUCCCAGAGAGAGAUAGAGACUCC | 0.441
UGUUGAUGCAUGGGCCUCAGUCACAGAGGAGCUGGGUGCCCAGUACCCUUGGGUGCAGGUCUUUGAAAACAAAGGUGCCAUGAUGGGCUGUUCUAACCCCCACCCCCACU | 0.318
